Measurements of several laboratories.
± gives the spread as reported.

Substance | organism | assay | system | setting | MIC
TFFRLFNRGRRRRSVQWCA | Streptococcus mutans | broth microdilution | peptide, GS-5 | 24 h, 37 °C, planktonic, anaerobic | 12.4 ± 4.22 µg/mL
CCCCCCCCCCCCCCCC(=O)N/N=C/c1ccccc1 | Staphylococcus aureus, Bacillus subtilis, Escherichia coli | bacterial growth | – | 24 h | 33.9 µM
CC1CCC(C(C)C)C(OC(=O)Cn2c[n+](CC(=O)OC3CC(C)CCC3C(C)C)c3ccccc32)C1 (centres unmarked) | Mycobacteroides abscessus | microbial growth | – | – | 61.4 µM
CC(C)C[C@H](NC(=O)[C@H](CCCNC(=N)N)NC(=O)[C@H](CC(C)C)NC(=O)[C@@H](NC(=O)[C@H](C)NC(=O)[C@H](Cc1c[nH]cn1)NC(=O)[C@H](CC(C)C)NC(=O)[C@@H](NC(=O)[C@@H](N)CO)[C@@H](C)O)C(C)C)C(=O)N[C@@H](CCCNC(=N)N)C(=O)NCC(=O)NCC(=O)O | Mycolicibacterium smegmatis | – | mc2 155 | 37 °C, ≥90% viability decrease | 50 µM
N=C(N)NCCC[C@H](NC(=O)[C@H](Cc1c[nH]cn1)NC(=O)[C@@H]1CCCN1C(=O)[C@H](CS)NC(=O)CN)C(=O)N[C@@H](CS)C(=O)O | Streptococcus pyogenes | broth microdilution | MTCC 442 | 37 °C | 90 µg/mL
NCC[C@H](O)C(=O)N[C@@H]1C[C@H](N)[C@@H](O[C@H]2O[C@H](CN)[C@@H](O)[C@H](O)[C@H]2O)[C@H](O)[C@H]1O[C@H]1O[C@H](CO)[C@@H](O)[C@H](N)[C@H]1O | Mycobacteroides abscessus | – | ATCC 19977 whiB7 MAB_2355 deleted | 120 h | 0.25 µg/mL
CC[C@H](C)[C@H](NC(=O)[C@H](CCCNC(=N)N)NC(=O)CNC(=O)[C@H](CC(C)C)NC(=O)[C@H](Cc1ccccc1)NC(=O)[C@H](CCC(N)=O)NC(=O)[C@H](Cc1ccccc1)NC(=O)[C@@H](N)C(C)C)C(=O)N[C@H](C(=O)N[C@@H](Cc1c[nH]cn1)C(=O)N[C@@H](Cc1c[nH]cn1)C(=O)N[C@H](C(=O)NCC(=O)N[C@@H](CC(N)=O)C(=O)N[C@@H](Cc1ccccc1)C(=O)N[C@H](C(=O)N[C@@H](Cc1c[nH]cn1)C(=O)NCC(=O)N[C@@H](Cc1ccccc1)C(=O)N[C@@H](CO)C(=O)N[C@@H](Cc1c[nH]cn1)C(=O)N[C@H](C(=O)N[C@@H](Cc1ccccc1)C(N)=O)C(C)C)C(C)C)C(C)C)[C@@H](C)CC | Enterobacter cloacae | broth microdilution | AR 0136 | pH 7.4 | > 128 µM
C[C@@H](O)[C@H]1C(=O)N2C(C(=O)O)=C(SCCN=CN)C[C@H]12 | Acinetobacter baumannii | broth microdilution | ATCC 17978 pET-RA-KmR no beta-lactamase | without inhibitor | 0.5 µg/mL
CC[C@H](C)[C@H](NC(=O)[C@@H]1CCCN1C(=O)[C@H](CCCCN)NC(=O)[C@@H]1CCCN1C(=O)[C@@H]1CCCN1C(=O)[C@@H](NC(=O)[C@@H]1CCCN1C(=O)[C@H](CCCNC(=N)N)NC(=O)[C@@H]1CCCN1C(=O)[C@H](CCCNC(=N)N)NC(=O)[C@H](Cc1ccc(O)cc1)NC(=O)[C@H](CO)NC(=O)CNC(=O)[C@H](CCCCN)NC(=O)[C@H](CC(=O)O)NC(=O)[C@@H](N)C(C)C)[C@@H](C)O)C(=O)N[C@@H](Cc1ccc(O)cc1)C(=O)N[C@@H](CC(N)=O)C(=O)N[C@@H](CCCNC(=N)N)C(=O)N[C@@H](CC(N)=O)C(=O)O | Salmonella enterica | – | serovar Tennessee | 18 h, 37 °C, 12.5% Mueller-Hinton broth | 0.075 ± 0.018 µM
CCCCCCCCCCCCCCCC(=O)N/N=C/c1ccccc1Cl | Staphylococcus aureus, Bacillus subtilis, Escherichia coli | bacterial growth | – | 24 h | 31.6 µM
STFFRLFNRSFTQGRRRRSVQWCA | Streptococcus mutans | broth microdilution | peptide, UA159 | planktonic, anaerobic | 10.7 ± 4 µg/mL
C/C=C/C=C/C(=O)N/N=C/c1ccccc1 | Staphylococcus aureus, Bacillus subtilis, Escherichia coli | bacterial growth | – | 24 h | 58.9 µM
pneumocandin H | Candida parapsilosis | broth microdilution, resazurin | ATCC 90018 | 24 h, 35 °C | 25.6 µg/mL
CCCCCCCCCCCCCC(=O)N/N=C/c1ccccc1 | Aspergillus niger | microbial growth, broth dilution | – | 7 days | 57.5 µM
CC(C)C[C@H](N)C(=O)N[C@@H](CS)C(=O)N1CCC[C@H]1C(=O)N[C@@H](Cc1c[nH]cn1)C(=O)N[C@@H](CCCNC(=N)N)C(=O)N[C@@H](CS)C(=O)O | Streptococcus pyogenes | broth microdilution | MTCC 442 | 37 °C | 20 µg/mL
CC(C)C[C@H](NC(=O)[C@H](CCCNC(=N)N)NC(=O)[C@H](CC(C)C)NC(=O)[C@@H](NC(=O)[C@H](CC(C)C)NC(=O)[C@H](Cc1c[nH]cn1)NC(=O)[C@H](C)NC(=O)[C@@H](NC(=O)[C@@H](N)CO)[C@@H](C)O)C(C)C)C(=O)N[C@@H](CCCNC(=N)N)C(=O)NCC(=O)NCC(=O)O | Mycolicibacterium smegmatis | – | mc2 155 | 37 °C, ≥90% viability decrease | 100 µM
CN[C@@H]1[C@@H](O)[C@@H](O[C@@H]2[C@@H](O)[C@H](O[C@H]3OC(CNCCO)=CC[C@H]3N)[C@@H](N)C[C@H]2NC(=O)[C@@H](O)CCN)OC[C@]1(C)O | Mycolicibacterium smegmatis | – | wild type | – | 0.03 µg/mL
C/C=C/C=C/C(=O)N/N=C/c1ccccc1Cl | Aspergillus niger | microbial growth, broth dilution | – | 7 days | 31.6 µM
TFFRLFNRSFTGRRRRSVQWCA | Streptococcus mutans | broth microdilution | peptide, GS-5 | 24 h, 37 °C, planktonic, anaerobic | 12.4 ± 4.22 µg/mL
O=C(N/N=C/c1ccccc1Cl)c1cc([N+](=O)[O-])cc([N+](=O)[O-])c1 | Staphylococcus aureus, Bacillus subtilis, Escherichia coli | bacterial growth | – | 24 h | 35.5 µM
CN[C@@H]1[C@H](O)[C@H](NC)[C@H]2O[C@@]3(O)C(=O)C[C@@H](C)O[C@H]3O[C@@H]2[C@H]1O | Mycobacteroides abscessus | – | ATCC 19977 ∆whiB7 | 120 h | 32 µg/mL
COc1cc(OC)cc(C(=O)N/N=C/c2ccccc2)c1 | Aspergillus niger | microbial growth, broth dilution | – | 7 days | 21.9 µM
CC[C@H](C)[C@H](NC(=O)[C@@H]1CCCN1C(=O)[C@H](CCCCN)NC(=O)[C@@H]1CCCN1C(=O)[C@@H]1CCCN1C(=O)[C@@H](NC(=O)[C@@H]1CCCN1C(=O)[C@H](CCCNC(=N)N)NC(=O)[C@@H]1CCCN1C(=O)[C@H](CCCCN)NC(=O)[C@H](Cc1ccc(O)cc1)NC(=O)[C@H](CO)NC(=O)CNC(=O)[C@H](CCCCN)NC(=O)[C@H](CC(=O)O)NC(=O)[C@@H](N)C(C)C)[C@@H](C)O)C(=O)N[C@@H](Cc1ccc(O)cc1)C(=O)N[C@@H](CC(N)=O)C(=O)N[C@@H](CCCNC(=N)N)C(=O)N[C@@H](CC(N)=O)C(=O)O | Salmonella enterica | – | serovar Newport | 18 h, 37 °C, 12.5% Mueller-Hinton broth | 0.075 ± 0.018 µM
CC1CCC(C(C)C)C(OC(=O)Cn2c(COc3ccccc3)[n+](C)c3ccccc32)C1 (centres unmarked) | Mycolicibacterium smegmatis | microbial growth | – | – | 5 µM
CCCCCCCCCCCCCCCCCC(=O)N/N=C/c1ccccc1Cl | Staphylococcus aureus, Bacillus subtilis, Escherichia coli | bacterial growth | – | 24 h | 29.5 µM
magainin 2 | Streptococcus mutans | serial dilution | ATCC 25175 | 24 h, 37 °C | 62.4 ± 2.8 µg/mL

Excerpt of the above:
Substance | organism | assay | system | setting | MIC
CC(C)C[C@H](NC(=O)[C@H](CCCNC(=N)N)NC(=O)[C@H](CC(C)C)NC(=O)[C@@H](NC(=O)[C@H](CC(C)C)NC(=O)[C@H](Cc1c[nH]cn1)NC(=O)[C@H](C)NC(=O)[C@@H](NC(=O)[C@@H](N)CO)[C@@H](C)O)C(C)C)C(=O)N[C@@H](CCCNC(=N)N)C(=O)NCC(=O)NCC(=O)O | Mycolicibacterium smegmatis | – | mc2 155 | 37 °C, ≥90% viability decrease | 100 µM
magainin 2 | Streptococcus mutans | serial dilution | ATCC 25175 | 24 h, 37 °C | 62.4 ± 2.8 µg/mL
NCC[C@H](O)C(=O)N[C@@H]1C[C@H](N)[C@@H](O[C@H]2O[C@H](CN)[C@@H](O)[C@H](O)[C@H]2O)[C@H](O)[C@H]1O[C@H]1O[C@H](CO)[C@@H](O)[C@H](N)[C@H]1O | Mycobacteroides abscessus | – | ATCC 19977 whiB7 MAB_2355 deleted | 120 h | 0.25 µg/mL
